Published values pooled from the literature.
Parts stem from different laboratories: compare values within a part only.

Series 1 — method: protein-binding microarray; form: double-stranded DNA, one strand shown; matrix: in vitro; tested at: not given; reading: higher = stronger binding
Target: Myc proto-oncogene protein, bHLH-zipper, MAX partner unstated (MYC, Homo sapiens, UniProt P01106, residues 368-449)
Sequence of UniProt P01106 (368-449, looked up): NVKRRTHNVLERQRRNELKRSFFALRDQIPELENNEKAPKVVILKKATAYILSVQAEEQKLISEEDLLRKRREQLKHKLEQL
Notes: k-mer, scored over probes, only values ≥0.25
Strand	E-score
CGCGCGGA	0.316
CGGGTGGC	0.313
CGCACACG	0.398
AGACGTGG	0.268
CCCCTCCC	0.347
ACGTGAGT	0.289
CCTCGTGA	0.419
CATGCTAG	0.338
CACGCGAG	0.41
ACACGCAC	0.382
GGCACGCA	0.285
CATGTGCC	0.475
CGTGTAAC	0.281
CACCCGCC	0.284
CCCGCCTC	0.337
AGCCTCAT	0.27
CCTCATGC	0.432
AGCCCCGC	0.255

Series 2 — method: protein binding microarray; form: double-stranded DNA, one strand shown; matrix: in vitro; tested at: not given; relative to: not given; reading: higher = stronger binding
Target: Histone acetyltransferase KAT6A, winged helix 2, GST fusion (KAT6A, Homo sapiens, UniProt Q92794, residues 85-181)
Notes: 8-mer, flanks averaged, mean of 2 arrays, mostly near background
Target sequence (chain): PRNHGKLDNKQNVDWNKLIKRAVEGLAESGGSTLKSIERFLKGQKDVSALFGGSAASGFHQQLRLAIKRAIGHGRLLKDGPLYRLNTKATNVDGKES
Strand	E-score
CAAGTTCG	-0.00694
AAGTCAAA	-0.0754
AGCCCCGG	0.212
ACATACCA	-0.115
ACGCGGAT	0.165
ACCTGATA	-0.0641
AGTTTATG	-0.00259
AACAACGG	-0.111
GACTCGTA	-0.143
GACGATAC	0.115
AATCCTAG	0.0261
GATTGACA	-0.0509
ACTAGGCT	-0.0201
TGGGGCAA	-0.109
CCTAGGTA	-0.338
AATCGTAT	-0.0517
ATGTGGTC	-0.0111
TACGGCGA	0.136
CCTCATCC	-0.029
ATAGAAAC	0.16
AAATATGT	-0.0837
ATCTCACG	-0.0948
AGGGCGAC	0.0737
AGGGCGGA	0.196
AGGACGAG	-0.0624

Series 3 — method: aptamer microarray, sandwich; form: DNA with 2'F-ANA; matrix: in vitro; tested at: 200 nM; with: Cy3 exosite-II aptamer, 400 nM; reading: higher = stronger binding; strand: GGTTGGTGTGGTTGG
Target: Prothrombin, mature alpha-thrombin (F2, Homo sapiens, UniProt P00734)
Notes: whole 15-mer aptamer, many near background
Modification	mean fluorescence intensity [a.u.]
2'F-ANA at 2 4 5 11 12 13 14 15	48.4
2'F-ANA at 1 2 4 13 14 15	51
2'F-ANA at 1 2 3 7 8 11 15	235
2'F-ANA at 1 3 7 9 12 15	519
2'F-ANA at 1 2 4 5 7 9 10 12 14 15	44.3
2'F-ANA at 1 3 4 5 7 9 11 12 13	68.3
2'F-ANA at 2 3 4 5 8 9 10 13	51.9
2'F-ANA at 2 4 5 6 8 9 10 12 13 14	48.2
2'F-ANA at 3 5 7 8 9 14	63.7
2'F-ANA at 3 4 5 6 7 12	241
2'F-ANA at 1 2 3 5 7 9 11 13 15	64.4
2'F-ANA at 1 2 4 5 6 8 9 12 14 15	57.9
2'F-ANA at 2 4 6 11 14	97
2'F-ANA at 2 4 7 8 10	128
2'F-ANA at 1 3 5 6 8 11 12 13 14	47.5
2'F-ANA at 1 2 3 4 5 7 8 9 11 12 14 15	50.7
2'F-ANA at 2 4 6 9 10 11 13 14 15	71
2'F-ANA at 4 5 6 7 9 13 15	49.4
2'F-ANA at 1 2 4 5 7 8 9 10 11 12 15	52.4

Series 4 — method: RNA Bind-n-Seq; form: RNA; matrix: in vitro; tested at: 365 nM; relative to: no-protein control; reading: higher = stronger binding
Target: RNA binding protein fox-1 homolog 2, RRM domain, GST-SBP tag (RBFOX2, Homo sapiens, UniProt O43251-10, residues 100-194)
Notes: natural RNA segment, single round, ends assumed
Constant ends, left off below: GGGAGUUCUACAGUCCGACGAUC … UGGAAUUCUCGGGUGCCAA
Residues (chain): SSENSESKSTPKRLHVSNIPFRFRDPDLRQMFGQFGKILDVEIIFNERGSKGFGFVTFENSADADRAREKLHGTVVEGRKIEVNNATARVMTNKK
Strand	RBNS enrichment (R)
UUUUGCUUCUUGGUCAAGAAAGGAGGGGAGAACCCAGCGCACCCCUCCCCCCCUUUUUUUAAACGCGUGAUGAAGACAGAAGGCUCCGGGGUGACGAAUUUGGCCGAUGG	0.843
UGACUGAGUACUGAGAUGCGAAGAGAAGCCGCACUCACCUACCCACCGCUCCCUUGGACGGGCUGCGACCCGCCAUCCUGGGGGUCAACACAGGAGGACAGAAGAGAGUG	0.316
CCAUAAACAGAGAUGGUCCUGAACUCUGGAGAGAUCCUUCCCUGAUCCUUUCGGACGACUACUUGGAGCCAUAAGUAACCUCAGCAAAAACGAGGCCUCUGCAAGCCACU	0.259
CUGUUUCCCGGUUAUGUGUAGGGAACAGCAGAGUGAUGCACGAACUUUGAACAUUCGUUAUGGGGAAAACAUCCUUUAACUUCGGGGUCGUCUGCCAGAGCAGGGUCUGG	7.58
CAUUUCUCUUUCGUCUCAACAGUAGACAACUAGGAUGUGGAUCUCAUAUUUAUAAGUAUGCAUUUUAUUUAAGAGGAAGUAUAGGCUUGACUCUGGUUCACAAUUUCGUA	1.62
UGUCUUGUUCUCUCCCAGCAAUUUAUUUUAAAACAAGGGCUAGCUUCAAGCAUGACUGUUAAUGGCUCCUCUGUGACAAAACACAAGUUGGACCAAGGAGAAAGCCCUUU	3.87
CUGGGUUACCCGUGUGUGUUAUCGUUUAAACUGUAUUCACAUAAUGUCAUUUGCCUUGCUCACUUGUAACCCCUUCCUCAGGUCCAAGAGAAUGGGAGGAGGGUCAUGUU	0.851
UUGCACUAAAUUGAACAUGACCCUGUUAGAGAUGUUAUAAAGGGAAUGAAAUCCUGGAACUCAGAGUUAAAUUAAGAACAAGGCAUCCCACAGAACCUAAUCUGAACAAU	0.786
GAGGGUACUGUCUCUAAUGUAUAUUUCUAGUGUUUACAGACACUAAGUGUGUAUAUGUAGUAACUAUUUACAGACCACGCAUCCUUAUACUGUGACUUCACCUAGAUCUU	0.308
GUUCGAUGUUUUCAAGUGAGAAAGAGGAAUGUAGUAUGCUUUGGCAUAGUUUGGGAGUGGAGAAUACAGACAUUAUCAGCAGUGACAAAUCACAUAGCUUCAAAAACUCC	0.398
CCGAGGCAGGGUCCAAACCUGAGUGAGGGCCAGCCAUGCCUCCCCUCCCAUUCCUCUGGUCCCUGCCUUGGUCCCUUGCCUGGGAAGAGGGCGAGGAGGCCAGUGGUGGG	0.337
ACAAACUCUGACGCCCUCUGUUUUCAGUGAGUAGUGAACUCCGGAAGCACAAAGGCCAGCGUGACAGCAGCGCCAUGCUCAUCCCCCUCACAGGACACUUCACUGCCAUU	0.297

Series 5 — method: RNA Bind-n-Seq; form: RNA; matrix: in vitro; tested at: 200 nM; notes: whole 134-nt RNA, ends assumed; with: 150 mM KCl; relative to: input library; reading: higher = stronger binding
Target: Ras GTPase-activating protein-binding protein 1, full length (G3BP1, Homo sapiens, UniProt Q13283)
Sequence of UniProt Q13283 (whole entry, looked up): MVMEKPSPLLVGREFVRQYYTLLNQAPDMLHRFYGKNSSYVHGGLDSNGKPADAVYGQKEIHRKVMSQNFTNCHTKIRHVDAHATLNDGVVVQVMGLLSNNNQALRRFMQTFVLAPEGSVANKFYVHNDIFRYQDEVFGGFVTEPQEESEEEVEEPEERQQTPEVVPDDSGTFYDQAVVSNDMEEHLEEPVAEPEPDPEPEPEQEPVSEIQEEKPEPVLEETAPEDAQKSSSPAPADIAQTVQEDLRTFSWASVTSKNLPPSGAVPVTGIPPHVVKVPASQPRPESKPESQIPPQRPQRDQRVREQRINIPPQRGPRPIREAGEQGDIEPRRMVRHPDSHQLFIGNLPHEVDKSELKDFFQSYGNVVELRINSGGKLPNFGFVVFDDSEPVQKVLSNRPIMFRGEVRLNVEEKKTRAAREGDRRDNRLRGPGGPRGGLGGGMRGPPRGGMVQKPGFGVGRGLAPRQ
Constant ends, left off below: GGGAGUUCUACAGUCCGACGAUC … UGGAAUUCUCGGGUGUCAAGG
Strand	log2 enrichment
GCAGGAAGUAAAAACAAAUGGAAAUGCUUCGGAUAGUGGCAGGGGUGGGGAUUGCUAAGGAAAGGGUGGGAUGGGAGUGGGUAAAGAGUU	1.04
UAACUUUAGAGGAGGAUCUGAUGGAUAUGGCAGUGGGCGUGGAUUUGGGGAUGGCUAUAAUGGGUAUGGAGGAGGACCUGGAGGUGGCAA	0.597
UGCUUCAGACCAAGCGGAGCUCCCGGAGGCAAAGCCUGGAGCUGCAGAAGUGUGAAGAGAUCCUCCACAAGAUCGUGAAGUACCGCUUCA	-1.98
CCUGUGCUACACAUCGUAUGUACCGAAUCGGGUUUUUUUGGUUUUUUUGGGUUUUUUUGGAAAGUAUUAUGUUACGCCGUUCGGAUCUGC	-0.847
UUAUGGAGUUUGGCCCUGAGGACAUGCUGCUGGGCAUGGAUGAGGCUGAAGAUGAUGAGGACCUGGAGGCUGAGCUGCUGGCUCUCACAG	-0.474
UGGGAGGUGGAUUUUGUUUAUUUUUUUAGCUCAUUUCCAGGGGUGGGAAUUUUUUUUUAAUAUGUGUCAUGAAUAAAAUUGUUUUUGAAA	0.0885
GCAGGAAGUAAAAACAAAUGGAAAUGCUUCGGAUAGUGGCAGGGGUGGGGGUUGCUAAGGAAAGAGUGGGAUGGGAGUGGGUAAAGAGUU	0.838
GCAGGAAGUAAAAACAAAUGGAAAUAAAUCGGAUAGUGGCAGGGGUGGGGGUUGCUAAGGAAAGGGUGGGAUGGGAGUGGGUAAAGAGUU	0.96
UGUGCUACACAUCGUAUGUACCGAAUCGGAAAAAAAGGGGAAAAAAAGGGGAAAAAAAGGGGAAAGUAUUAUGUUACGCCGUUCGGAUCU	-0.52
CACAGACAACACGCACCCACACAGACACAGAGGGAAGGGGUUGGGAUGGGGACAGGGUGCACAGCAGGGCGGGGUAGGACCCCAGCGCCU	1.9
GUCCUGUGCUACACAUCGUAUGUACCGAAUCAAAUUUUUUUAAACCCAAAUUUUUAAAAAAGUAUUAUGUUACGCCGUUCGGAUCUGCAC	-0.832
CCUGUGCUACACAUCGUAUGUACCGAAUCGGUUUUUUGGGGUUUUUUGGGGUUUUUUGGGAAAGUAUUAUGUUACGCCGUUCGGAUCUGC	-0.869
AAGUCCUGUGCUACACAUCGUAUGUACCGAAUCGGGUUUUUGGGAAAAAGGGUGGGAAAGUAUUAUGUUACGCCGUUCGGAUCUGCACUU	0.153
CCUCAAGUCCUGUGCUACACAUCGUAUGUACCGAAUCGGGUUGGUUGGUUGGAAAGUAUUAUGUUACGCCGUUCGGAUCUGCACUUCCAG	-0.0535

Mixed results
Substance	target	test	system	setting	how to read	endpoint	value
PhoQ, residues 284 288 289 292 302 303 NLALSC	PhoP, residues 12 14 15 18 19 NYFTV (Escherichia coli, UniProt P23836)	Sort-seq, refers to: YFP reporter	E. coli	PhoQ-PhoP variant library, with: 10 µM Mg2+	relative to: high Mg2+ state, higher = stronger signaling	fold induction	1.69

Excerpt of the above (series 2):
Strand	E-score
ATGTGGTC	-0.0111
AACAACGG	-0.111
TACGGCGA	0.136
AAGTCAAA	-0.0754
CCTCATCC	-0.029
AGCCCCGG	0.212
AAATATGT	-0.0837
